Measurements pooled from the literature.
Protocols differ between the studies behind these lines. Numbers after ± are the reported error.

With `CN[C@](C)(C[18F])C(=O)O` the tissue uptake was 2.6 ± 0.3 %ID/g (SCID mouse A549 xenograft, kidney; 120 min post injection).
With `CN(C)C(CNC(=O)Nc1cc(C(F)(F)F)ccc1N1CCOCC1)c1ccncc1` (stereo not drawn) the serum globulin was 1.6 g/dL (mouse, serum; intraperitoneal, 240 mg/kg single dose).
With `CCN(Cc1ccccc1)C(=O)CCc1nc(CN2CCN(C(=O)Cc3ccc(OC)c(OC)c3)CC2)no1` the concentration was 4.6 ng/g (rat, brain; intravenous, 1 mg/kg, 15 min).
Under “mean arterial pressure”, `CC[C@H](C)[C@H](NC(=O)[C@H](Cc1ccccc1)NC(=O)[C@@H]1CCCN1C(=O)[C@H](CCCCN)NC(=O)[C@H](CCCCN)NC(=O)[C@H](Cc1ccccc1)NC(=O)[C@H](Cc1ccccc1)NC(=O)[C@@H](C)NC(=O)[C@@H](N)Cc1ccc(O)cc1)C(=O)N[C@@H](CC(C)C)C(=O)O` is recorded as 87 ± 7 mmHg (anesthetized rat; intrathecal, 10 nmol/rat, 10 min).
`CC[C@H](C)C(=O)N1CCC(NC(=O)Nc2ccc(OC(F)(F)F)c(F)c2)CC1`: “subjects with any TEAE” 33.3% (healthy volunteers; oral, 0.5 mg single dose, 14 (unit not given)).
With `Cc1ccc(/C=C/C(=O)O)cc1-c1cc2c(cc1C)C(C)(C)CCC2(C)C` the Tmax was 2 h (rat Sprague-Dawley male, plasma; oral, 100 mg/kg, sesame oil).
`NC(=O)CC[C@@H](NC(=O)[C@@H](CCC(N)=O)NC(=O)[C@@H](CC(N)=O)NC(=O)[C@@H](CC(N)=O)NC(=O)CNC(=O)Cc1ccc2ccccc2c1)C(=O)N[C@H](CC(N)=O)C(=O)N[C@H](Cc1ccc(OP(=O)(O)O)cc1)C(=O)O` gave a fibre width of 6 ± 2 nm (TEM; hydrogel; pH 7.4).
`CNC(=O)Oc1cc(C)c([S+](C)[O-])c(C)c1` (stereo not drawn) gave a percent metabolized of 20.7% (human liver cytosol; 1 µM, 30 min, 1 mg/mL protein).
For `CNC(=O)C1CCN(c2ccccc2NC(=O)c2ccc(-c3cc(O)ccc3C)c(C)n2)CC1`, the microsomal CLint was 48 µL/min/mg (metabolic stability; human, liver microsomes; 2 µM).
The clearance of `COc1cc(NC(=O)C(=O)c2c(C)n(Cc3ccc(Cl)cc3)c3ccc(C)cc23)ccn1` is reported as 10.7 mL/min/kg (female cynomolgus monkey, plasma; intravenous, 1 mg/kg).
`CCCCCCCCCCCCC(=O)O.O=C1CCCC2C3CCCN4CCCC(CN12)C34` (stereo not drawn) — result for “standard enthalpy of aggregation”: -0.681 kcal/mol (electrical conductivity; water; 298.15 K).
With `CC1=CC=c2ccc3c4c2[N]1[Re](=[C]=O)(=[C]=O)(=[C]=O)([C]#[N+]c1c(C)cccc1C)[N]4C(C)=CC=3.O=S(=O)([O-])C(F)(F)F` the luminescence lifetime was 1.2 µs (PBS; 10 µM, air-equilibrated).
The efflux ratio of `COC1CC(OC2CCC3(C)C(CCC45OC46CCC(C(C)=O)C6(C)C(OC(C)=O)C(OC(=O)c4ccccc4)C35)C2)OC(C)C1OC1OC(C)C(O)C(OC)C1O` (stereo not drawn) is reported as 1.4 (Caco-2; 10 µM).
`O=C(NCCCCCCn1ccc2ccccc21)Oc1ccccc1` gave a parent remaining of 50 ± 2% (rat liver S9 fraction; 30 min, added: NADPH).
For `O=C(CN1CCN(c2cc3c(cc2F)c(=O)c(C(=O)O)cn3C2CC2)CC1)Nc1ccc(Cl)cc1`, the intercompartmental clearance was 0.0079 mL/min (female BALB/c mice; intravenous, 3.75 mg/kg).
Under “NE share of white cells”, `CC[C@H](C)[C@H](NC(=O)[C@H](CC(=O)O)NC(=O)[C@H](CO)NC(=O)[C@H](CCC(N)=O)NC(=O)[C@H](C)NC(=O)[C@H](CC(=O)O)NC(=O)[C@H](CCC(=O)O)NC(=O)[C@H](Cc1c[nH]cn1)NC(=O)[C@H](Cc1ccc(O)cc1)NC(=O)[C@H](C)NC(=O)[C@H](CC(=O)O)NC(=O)[C@H](CCC(=O)O)NC(=O)[C@H](Cc1c[nH]cn1)NC(=O)[C@H](Cc1ccc(O)cc1)NC(=O)[C@H](C)NC(=O)[C@H](CC(=O)O)NC(=O)[C@H](CCC(=O)O)NC(=O)[C@H](Cc1c[nH]cn1)NC(=O)[C@H](Cc1ccc(O)cc1)NC(=O)[C@H](C)NC(=O)[C@H](CC(=O)O)NC(=O)[C@H](CCC(=O)O)NC(=O)[C@H](Cc1c[nH]cn1)NC(=O)[C@H](Cc1ccc(O)cc1)NC(=O)[C@H](C)NC(=O)[C@H](CC(=O)O)NC(=O)[C@H](CCC(=O)O)NC(=O)[C@H](Cc1c[nH]cn1)NC(=O)[C@@H](N)Cc1ccc(O)cc1)C(=O)N[C@H](C(=O)N[C@@H](C)C(=O)N[C@@H](Cc1c[nH]cn1)C(=O)N[C@@H](CC(C)C)C(=O)N[C@@H](CC(C)C)C(=O)O)C(C)C` is recorded as 18.1 ± 2.8% (normal mouse, blood; dose not given).
`CC(=O)NC(Cc1ccc(Br)c(Cl)c1)C(=O)N[C@@H](C)C(=O)N1CCC[C@H]1C(=O)N1CCC[C@H]1C(=O)N[C@@H](CCC(=O)O)C(=O)N[C@@H](Cc1c[nH]cn1)C(=O)N[C@@H](CO)C(=O)N[C@H](C(=O)N[C@@H](C)C(N)=O)[C@@H](C)OP(=O)(O)O` (stereo partly drawn) has a microsomal CLint of 39 µL/min/mg (metabolic stability; human, liver microsomes; 1 µM, pH 7.4).
For `C[C@H](NCc1ccc(-c2ccc(C(F)(F)F)cc2)cc1)C(N)=O`, toxicity read “not toxic” (Sprague Dawley rat; oral, 200 mg/kg/day, 14 days).
The tracer uptake of `COc1ccc(NC(=O)Cn2c(=O)c3ccccc3n(CC(=O)Nc3cc([125I])c(OC)cc3OC)c2=O)cc1` is reported as 0.58 %ID/g (rat, kidney; intravenous, 5 min).
`C[C@]12CC[C@H](O)CC1CCC1C2[C@H](O)C(=O)[C@]2(C)[C@@H](c3ccc(=O)oc3)CC[C@]12O` (stereo partly drawn) — result for sulfation activity: “inactive” (substrate; dog liver cytosol; concentration not given).
The peak separation of `CC(=O)[O-].CN1CCCN2CCN(CCCN(Cc3ccccc3)CC2)CC1.F[P-](F)(F)(F)(F)F.[Co+2]` is reported as 177 mV (cyclic voltammetry, item: first Co2+/Co3+ couple; acetonitrile).

A few entries again:
With `CN[C@](C)(C[18F])C(=O)O` the tissue uptake was 2.6 ± 0.3 %ID/g (SCID mouse A549 xenograft, kidney; 120 min post injection).
For `CNC(=O)C1CCN(c2ccccc2NC(=O)c2ccc(-c3cc(O)ccc3C)c(C)n2)CC1`, the microsomal CLint was 48 µL/min/mg (metabolic stability; human, liver microsomes; 2 µM).
`CC[C@H](C)C(=O)N1CCC(NC(=O)Nc2ccc(OC(F)(F)F)c(F)c2)CC1`: “subjects with any TEAE” 33.3% (healthy volunteers; oral, 0.5 mg single dose, 14 (unit not given)).
